Experimental data pooled from the literature.
Compare with care: the assays were run in different laboratories. Values joined by “and” are separate records of one study, mostly repeats; a detail may differ. ± gives the spread as reported.

SMILES	test	system	setting	how to read	measurement	result
CNCc1ccc(-c2[nH]c3cc(F)cc4c3c2CCNC4=O)cc1	–	human patients	oral, 840 mg twice daily, all grades	–	dizziness incidence	0%
CC(C)[C@H](C(=O)Nc1ccc(C(=O)NO)cc1)c1ccccc1	–	whole blood	10.0 ng/mL, 5 h, 4 °C, stability on ice	–	measured concentration	10.9 ng/mL
COc1cccc(OC)c1-c1cc(C(=O)NC2(C(=O)O)C3CC4CC(C3)CC2C4)nn1-c1ccc(C(=O)N(C)CCCN(C)CCCN(C)C(=O)CN2CCN(CC(=O)[O-])CCN(CC(=O)[O-])CCN(CC(=O)[O-])CC2)cc1C(C)C.[177Lu+3] (centres unmarked)	–	mouse HT-29 xenograft	72 h, biodistribution	relative to: tumour over spleen	tumour-to-spleen ratio	41.4
Nc1ncn([C@H]2C[C@H](O)[C@@H](CO)O2)c(=O)n1	–	C57BL/6 mice, female	oral, 0.4 mg/kg	–	oral bioavailability	~38%
O=C(Nc1nc2cccc(-c3ccc(CN4CCS(=O)(=O)CC4)cc3)n2n1)C1CC1	item: gastrointestinal disorders	human rheumatoid arthritis patients	oral, 30 mg once daily, 4 weeks, regardless of relatedness	–	treatment-emergent adverse events	23.5%
Cc1ccc(C)c(OCCCC(C)(C)C(=O)O)c1	item: V/F	human subjects, plasma	oral, dose not given, together with: lopinavir-ritonavir	relative to: with over without lopinavir-ritonavir	geometric mean ratio	1.69
Oc1ccc(/C=C/c2cc(O)cc(O)c2)cc1	–	rat, azoxymethane-injected, blood at sacrifice	100 mg/kg	–	glucose	180 mg/dL and 262 mg/dL and 212 mg/dL
CCN1CCN(Cc2ccc(NC(=O)c3ccc(C)c(NC(=O)c4cncc(-c5cccs5)c4)c3)cc2C(F)(F)F)CC1	–	C57BL/6 mice, epithelial lining fluid	intraperitoneal, 30 mg/kg	–	dose-normalised AUC	0.32 kg·µg·h/mL/mg
COc1ccc([C@@H](O)c2cc(-c3ncnc4cc(N5CCOCC5)ccc34)c(F)cc2Cl)nn1	–	locally advanced rectal cancer patients	250 mg, together with: capecitabine and radiotherapy	–	drug-related blood lymphatic AE	50%
N#C[C@@]1(c2ccc3c(N)ncnn23)O[C@H](CO)[C@@H](O)[C@H]1O	–	human plasma	1 to 100 µM, mean over concentrations	–	unbound fraction	0.846
C[C@H](CCC(=O)NCC(=O)O)[C@H]1CC[C@H]2[C@@H]3CC[C@@H]4C[C@H](OS(=O)(=O)O)CC[C@]4(C)[C@H]3CC[C@]12C	–	human, plasma	endogenous baseline diurnal	relative to: daily mean concentration	relative peak deviation	85.4 ± 9.5%
CC(C)(C(=O)N1CCOc2c(C#N)cncc2C1)C(F)F	item: blood and lymphatic disorders	human, both sexes	oral, 20 mg once daily, 14 days, multiple ascending dose	–	subjects with TEAE	0%
CC(=O)N(C)[C@H]1CCN(C(=O)c2cnc3c(c2)C[C@](C)(c2ccc(F)cc2)N3)C1	–	human, left eye	oral, 15 mg	–	lens nucleus opacity diameter	< 1 mm
CCn1cc(C(=O)N2CCOCC2)c(=O)c2cc(NC3Cc4ccccc4C3)cnc21	–	human, fasted, plasma	oral, 1200 mg single dose, tablet, median	–	Tmax	0.75 h
CN1CCN(c2cccc3c2CCN(C(=O)/C=C/c2c(-n4cnnn4)ccc(Cl)c2F)[C@@H]3C(=O)Nc2ccc(C(=O)O)cc2)C(=O)C1	–	healthy human subjects	intravenous infusion, 25 mg/h, 2 h	–	subjects with headache	0%
CO[C@H]1C[C@@H]2CC[C@@H](C)[C@@](O)(O2)C(=O)C(=O)N2CCCC[C@H]2C(=O)O[C@H]([C@H](C)C[C@@H]2CC[C@@H](O)[C@H](OC)C2)CC(=O)[C@H](C)/C=C(\C)[C@@H](O)[C@@H](OC)C(=O)[C@H](C)C[C@H](C)/C=C/C=C/C=C/1C	–	healthy adult horses	intravenous, 0.06 mg/kg, 1 h	–	rectal temperature	37 ± 0.4 °C
C[C@@H](Oc1ccc(S(C)(=O)=O)cc1C(=O)N1C[C@@H]2C[C@]2(c2cc(C(F)(F)F)on2)C1)C(F)(F)F	–	human	oral, 25 mg	–	subjects with nervous system disorders	66.7%
COc1ccc2c(=O)n(C)c(-c3ccccc3)nc2c1	–	Sprague-Dawley rat, male, large intestine	oral, 30 mg/kg, 0.5 h	–	concentration	34.1 ng/mL
CCO[C@H]1CCN(Cc2c(OC)cc(C)c3[nH]ccc23)[C@H](c2ccc(C(=O)O)cc2)C1	–	PNH patients, active haemolysis	oral, 50 mg, 4 weeks, treatment	–	incidence of flatulence	0%

SMILES	test	system	setting	how to read	measurement	result
Cc1ccc(Sc2ccccc2N2CCNCC2)c(C)c1	–	healthy adult men	oral, 5 mg single dose, treatment-emergent adverse events	–	eczema incidence	0%
COc1cc(N2CCC3(CCN(C)CC3)CC2)ccc1Nc1ncc(Cl)c(Nc2ccccc2P(C)(C)=O)n1	population PK model	human	oral, base structural model	–	V2/F	303 L
O=C(c1cccnc1-c1ccncc1)N1CCC(O)(Cc2ccccc2)CC1	–	healthy Japanese adults, plasma	oral, 300 mg twice daily, day 21	–	terminal elimination rate constant	7.5e-05 s⁻¹
C=CC(=O)NC1CCN(c2ncc3ncnc(Nc4ccc(Oc5ccc6c(c5)ncn6C)c(C)c4)c3n2)CC1	item: total radioactivity	healthy male volunteers, plasma	oral solution, 60 mg, together with: [14C]-labelled compound	–	terminal half-life	260 h
Cc1c(-c2ccc(N3CCc4cccc(C(=O)Nc5nc6ccccc6s5)c4C3)nc2C(=O)O)cnn1CC12CC3(C)CC(C)(C1)CC(OCCNCC[C@H](O)CO)(C3)C2	–	anaesthetized male beagle dog	iv infusion, 0.3 mg/kg/min, 75 min	–	plasma concentration	4.58 ng/mL and 1.18 ng/mL
[18F]c1ccc(-c2ccc3c(c2)[nH]c2ccncc23)cn1	microPET/CT imaging	B6SJL mouse, normal, heart	intravenous, 15 min	–	SUV	0.67 ± 0.187
C=CC(=O)N1CCC(c2ccc(C(N)=O)c(-c3ccc(Oc4ccccc4)cc3)n2)CC1	–	relapsed/refractory mantle cell lymphoma patients	oral, dose not given, phase 1/2 trial, CTCAE v4.03	–	incidence of serious pleural effusion	0.9%
CC[C@H](C)[C@H](NC(=O)[C@H](Cc1ccccc1)NC(=O)[C@H](CCC(=O)O)NC(=O)[C@H](CCCCN)NC(=O)[C@H](C)NC(=O)[C@H](C)NC(=O)[C@H](CCC(N)=O)NC(=O)CNC(=O)[C@H](CCC(=O)O)NC(=O)[C@H](CC(C)C)NC(=O)[C@H](Cc1ccc(O)cc1)NC(=O)[C@H](CO)NC(=O)[C@H](CO)NC(=O)[C@@H](NC(=O)[C@H](CC(=O)O)NC(=O)[C@H](CO)NC(=O)[C@@H](NC(=O)[C@H](Cc1ccccc1)NC(=O)[C@@H](NC(=O)CNC(=O)[C@H](CCC(=O)O)NC(=O)[C@H](C)NC(=O)[C@@H](N)Cc1c[nH]cn1)[C@@H](C)O)[C@@H](C)O)C(C)C)C(=O)N[C@@H](C)C(=O)N[C@@H](Cc1c[nH]c2ccccc12)C(=O)N[C@@H](CC(C)C)C(=O)N[C@H](C(=O)N[C@@H](CCCCN)C(=O)NCC(=O)N[C@@H](CCCNC(=N)N)C(N)=O)C(C)C	RP-HPLC	pooled human male AB serum 25% v/v	2 mg/mL, 24 h, 37 °C	–	percent degraded	~80%
C[C@@H]1CCO[C@H]2Cn3cc(C(=O)NCc4ccc(F)cc4F)c(=O)c(O)c3C(=O)N12	population PK, post-hoc	children, 14 to <20 kg, plasma	oral, 15 mg dispersible tablet, 24 h, steady state, geometric mean	–	plasma concentration	428 ng/mL
CC(C)c1nc(N(C)S(C)(=O)=O)nc(-c2ccc(F)cc2)c1/C=C/[C@@H](O)C[C@@H](O)CC(=O)O	–	healthy human volunteers, plasma	oral, dose not given, BCRP probe substrate, together with: momelotinib	relative to: compound alone	AUC0-last ratio	280%
CCOc1c([C@H](C)n2nc(C)c3c(N)ncnc32)cc(Cl)c(F)c1[C@@H]1CNC(=O)C1	–	rat plasma	1600 ng/mL, three freeze-thaw cycles	relative to: nominal concentration	stability relative error	-8.9%
C[C@H]1CN(C(=O)CC#N)[C@]12CCN(c1ncnc3[nH]ccc13)C2	–	healthy Japanese males	oral, 100 mg single dose, mean	–	Cmax	956 ng/mL
COc1ncc(-c2nc3c(n2C(C)C)[C@H](c2ccc(Cl)cc2)N(c2cc(Cl)cn(C)c2=O)C3=O)c(OC)n1	–	human patients, plasma	oral, 4 mg, cycle 1 day 1, low-dose	–	geometric mean Cmax	17.6 ng/mL
CCONC(=O)N1CCC[C@H](C(=O)NCc2nc(-c3ccc(C#N)cc3)cs2)C1	–	Sprague-Dawley rat, male, urine	intravenous, 1 mg/kg, 24 h	relative to: dose	urinary excretion	1.9%
CN(C(=O)n1cnc(-c2ccc[n+]([O-])c2)c1)[C@H]1CC[C@H](O)CC1	–	rat, cerebellum	oral, 10 mg/kg daily for 5 days, 4 h	–	tissue concentration	8.7 ± 0.9 ng/g
NC(CO)(CO)CCc1ccc(Sc2cccc(OCc3ccccc3)c2)cc1Cl	–	human, supine	oral, 3 mg, 0 to 24 h, together with: cyclosporin 100 mg	–	pulse rate AUEC, mean	1310 h×bpm
N#Cc1ccc(C(c2ccc(C#N)cc2)n2cncn2)cc1	–	human patients, tumour tissue at surgery	2.5 mg daily	–	tumour concentration	23 ± 9.5 ng/g
COc1cccc2c1C(=O)c1c(O)c3c(c(O)c1C2=O)C[C@@](O)(C(=O)CO)C[C@@H]3O[C@H]1C[C@H](N)[C@H](O)[C@H](C)O1	–	red blood cells	20 ppm, 1 h	–	hemolysis	24.5%
Cn1cc(-c2cn3nccc3c(-c3cnn([C@]4(CC#N)C[C@@H](C#N)C4)c3)n2)cn1	–	healthy humans fed, plasma	1200 mg once daily, day 10, geometric mean	–	average concentration	620 ng/mL

SMILES	test	system	setting	how to read	measurement	result
COc1ccc2c(c1)CN(C(=O)CCN1CCC(Cc3ccccc3)CC1)CC[S@@+]2[O-]	telemetry	conscious male beagle dogs	intravenous, 8 mg/kg, 2 h	–	PQ interval	87 ± 6 ms
NCCONC(=O)[C@@H]1CC[C@@H]2CN1C(=O)N2OS(=O)(=O)O	item: leading to permanent discontinuation	healthy Chinese men	intravenous, 1 g, treatment-emergent	–	adverse event incidence	0%
CC(C)Oc1c(NC(=O)c2ccc(NC(=O)[C@H](CC(N)=O)NC(=O)c3ccc(NC(=O)c4ccc(C#N)cc4)cc3)cc2)ccc(C(=O)N/N=C/c2ccc(C(=O)O)cc2)c1O	absorbance	DMSO	30 °C, PSS to ground state relaxation	–	thermal half-life	19.6 h
CCn1c(C(=O)N(C2CC2)C2CC2)cc2c3c(ncn3C)c(Nc3cc(C)n(C)n3)nc21	–	cancer patients	oral, 200 mg twice daily, day 15, 337.0 h	–	plasma concentration	7020 ng/mL
O=C(O)CCC(=O)O.[2H]C([2H])([2H])Oc1cc(C)c2[nH]ccc2c1CN1CC[C@@H](C2CC2)C[C@H]1c1ccc(C(=O)O)cc1	–	healthy Chinese subjects	300 mg once daily, multiple ascending dose	–	TEAE elevated monocyte	0%
CNC(=O)c1ccc(-c2cnc3ncc(Cc4ccc5ncccc5c4)n3n2)cc1F	–	Japanese patients	oral, 400 mg, any grade	–	blood ALP increased dose reduction/interruption	1%
O=C(N[C@H](Cc1c[nH]c2ccccc12)C(=O)Nc1ccncc1)c1ccc(N2CCN(c3ccc(F)c(F)c3)CC2)cc1F	–	Swiss Webster mouse, female, brain	oral, 50 mg/kg, 2 h, 20% HPβCD vehicle	–	concentration	17 µM
O=C1CC[C@H](N2Cc3cc(N4CCN(CC5CCN(c6ccc([C@@H]7c8ccc(O)cc8CC[C@@H]7c7ccccc7)cc6)CC5)CC4)ccc3C2=O)C(=O)N1	rapid equilibrium dialysis	human plasma	2.5 µM, 6 h	–	unbound fraction in plasma	0.035
Cc1noc(C)c1-c1cc(C(O)(c2ccccn2)c2ccccn2)c2nc(C3CC3)[nH]c2c1	–	human male patients, fasted, plasma	oral, 3 mg once daily, cycle 1 day 8	–	Ctau	157 ng/mL
Cc1cc(NC2CCN(C(=O)OC3CCN(C(=O)/C=C/CN(C)C)C3)CC2)n2ncc(C(C)C)c2n1 (centres unmarked)	Phase I dose escalation CTCAE v4.0, item: pain in extremity	patients with advanced solid tumours	dose not given, TIW dosing grade 3 or higher	–	patients with adverse event	0%
C[C@H](CCC(=O)NCC(=O)O)[C@H]1CC[C@H]2[C@@H]3[C@H](O)C[C@@H]4C[C@H](O)CC[C@]4(C)[C@H]3C[C@H](O)[C@]12C	–	human, plasma	endogenous baseline diurnal	relative to: daily mean concentration	relative peak deviation	190 ± 18%
Cn1cc(Nc2nccc(-c3ccc4c(c3)CN(C3COC3)CC[C@H]4NC(=O)c3cn(C(C)(C)C)nn3)n2)cn1	item: transitional B cells	human, clinical trial, whole blood	150 mg twice daily, follow-up	–	percent change from baseline	-55.2%
Cc1cc(-c2nnc(N)nc2-c2ccc(F)cc2)cc(Cl)n1	item: Hyperthyroidism	IO-naive mCRPC patients, male	oral, dose not given, treatment-related, grade 1	–	patients with immune-mediated AE	0%
Cc1ccc([C@@H]2O[C@H](CO)[C@@H](O)[C@H](O)[C@H]2O)cc1Cc1ccc(-c2ccc(F)cc2)s1	–	Japanese type 2 diabetes patients	200 mg, day 16, 24 h urine collection	relative to: baseline	urinary sodium excretion change	14.7 mEq
O=C(Nc1cnccc1Cl)N1CCN(Cc2ccc3c(c2)OC(F)(F)O3)CC1	–	young men, plasma	oral, 75 mg once daily, day 10, normalized to 10 mg	–	dose-normalized Cmax	126 ng/mL
C=CC(=O)Nc1cc(Nc2nccc(-c3cn(C)c4ccccc34)n2)c(OC)cc1N(C)CCN(C)C	storage stability	human dried blood spots	24 h, on ice, low QC level	–	recovery	73.4%
CCc1cc(C(=O)NC)c2nccc(N3CCc4c(cc(Cn5ccnc5)cc4-c4cn(C)nc4C(F)(F)F)C3=O)c2c1	–	Sprague Dawley rat	oral, 50 mg/kg once daily, 7 days	relative to: vehicle	spleen weight change	-7.94%
CCN1/C(=C/C(C)=O)Sc2ccc(F)cc21	–	cynomolgus monkey	oral, 10 mg/kg, 4 h post-dose	–	QTc interval (Bazett)	328 ± 9 ms
